Results collected from several papers.
Numbered parts are unrelated; each lists some results of a single study. Changes are numbered by the printed parent chain.

Set 1 — target: CEP164, C-terminal peptide (human); technique: DHFR complementation, deep sequencing; matrix: yeast; relative to: wild type; direction: higher = weaker binding; quantity: binding free energy change
Setting: single substitutions, model-inferred values
Starting sequence: PDZK1, PDZ domain 2 (human); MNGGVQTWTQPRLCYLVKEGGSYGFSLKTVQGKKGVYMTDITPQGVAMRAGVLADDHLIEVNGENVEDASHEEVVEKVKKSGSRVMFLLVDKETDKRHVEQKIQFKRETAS; partner HNRVKVYRF
Substitution = G51C; result = 0.19 kcal/mol
Substitution = R97E; result = -0.0547 kcal/mol
Substitution = K92F; result = 0.0257 kcal/mol
Substitution = G63H; result = 0.038 kcal/mol
Substitution = D91A; result = -0.129 kcal/mol
Substitution = V30H; result = 0.364 kcal/mol
Substitution = G45I; result = 1.39 kcal/mol
Substitution = K33A; result = 0.19 kcal/mol

Set 2 — target: CCNE2, cyclin fold, Cln2 fusion (human); technique: yeast growth competition, sequencing; matrix: yeast; setting: strong parent motif; relative to: not given; direction: higher = stronger binding; quantity: normalised enrichment score
Starting sequence: viral docking peptide; YKVKRRLVFGADD; partner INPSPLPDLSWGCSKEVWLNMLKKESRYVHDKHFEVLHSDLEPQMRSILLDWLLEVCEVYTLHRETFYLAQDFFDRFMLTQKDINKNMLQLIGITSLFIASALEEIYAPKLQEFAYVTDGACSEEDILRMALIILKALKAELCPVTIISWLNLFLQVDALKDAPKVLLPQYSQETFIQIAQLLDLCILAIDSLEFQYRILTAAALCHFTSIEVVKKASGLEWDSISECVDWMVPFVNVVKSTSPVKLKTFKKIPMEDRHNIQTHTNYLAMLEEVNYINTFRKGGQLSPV
Substitution = YGVKRRLVFGADD [K2G]; result = 6.25
Substitution = YKVIRRLVFGADD [K4I]; result = 1.83
Substitution = YKVKRRLVFGNDD [A11N]; result = 5.84
Substitution = YKVKRRLVFGATD [D12T]; result = 5.82
Substitution = YKVKRYLVFGADD [R6Y]; result = 1.14
Substitution = YKVKRKLVFGADD [R6K]; result = 5.24
Substitution = YKVKCRLVFGADD [R5C]; result = 0.877
Substitution = YKVKRRLVFGEDD [A11E]; result = 6
Substitution = YKVKRRSVFGADD [L7S]; result = 0.787
Substitution = YKVKDRLVFGADD [R5D]; result = -0.0793
Substitution = YKVKRRLVFGAWD [D12W]; result = 4.5
Substitution = YKVDRRLVFGADD [K4D]; result = 0.247
Substitution = YKVKRRLVFNADD [G10N]; result = 5.62
Substitution = YKVKRRLVRGADD [F9R]; result = 0.362
Substitution = YKVKARLVFGADD [R5A]; result = 0.351
Substitution = YKVKRRLVAGADD [F9A]; result = 0.132
Substitution = YKVKRRLVFGASD [D12S]; result = 5.71
Substitution = YKVKRRLRFGADD [V8R]; result = 3.97
Substitution = YKVKRRLVFGPDD [A11P]; result = 6.25
Substitution = YKVFRRLVFGADD [K4F]; result = 1.12
Substitution = YKMKRRLVFGADD [V3M]; result = 0.682
Substitution = YSVKRRLVFGADD [K2S]; result = 5.77
Substitution = YKVKRRLMFGADD [V8M]; result = 5.11
Substitution = YKVKRRLDFGADD [V8D]; result = 6.33
Substitution = YKVKRRLVFEADD [G10E]; result = 5.63

Set 3 — technique: protein-binding microarray; form: double-stranded DNA, one strand shown; matrix: in vitro; concentration: not given; direction: higher = stronger binding; quantity: E-score
Target: Protein C-ets-1 (ETS1, Homo sapiens, UniProt P14921, residues 1-441, Y397A, full length assumed)
Sequence of UniProt P14921 (whole entry, unmodified, looked up): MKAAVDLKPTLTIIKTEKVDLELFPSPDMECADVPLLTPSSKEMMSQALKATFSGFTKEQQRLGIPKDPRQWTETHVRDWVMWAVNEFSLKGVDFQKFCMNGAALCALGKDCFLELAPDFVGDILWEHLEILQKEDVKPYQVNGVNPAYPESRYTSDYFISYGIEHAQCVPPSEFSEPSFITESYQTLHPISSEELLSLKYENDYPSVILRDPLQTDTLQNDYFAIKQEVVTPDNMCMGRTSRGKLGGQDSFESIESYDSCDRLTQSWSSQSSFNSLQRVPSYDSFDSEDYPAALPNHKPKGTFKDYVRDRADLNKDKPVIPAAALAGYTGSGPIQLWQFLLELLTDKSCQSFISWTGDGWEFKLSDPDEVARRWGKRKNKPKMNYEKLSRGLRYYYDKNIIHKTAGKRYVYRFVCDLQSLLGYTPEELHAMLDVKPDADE
Setting: k-mer, scored over probes, only values ≥0.25
Sequence = GTCGTACA; result = 0.298
Sequence = TGTTGTAA; result = 0.309
Sequence = ACAATTGC; result = 0.294
Sequence = ATGTTGTC; result = 0.256
Sequence = CGAATCGA; result = 0.339
Sequence = TTGTCAAA; result = 0.325
Sequence = ATTGGCAG; result = 0.365
Sequence = GTTTTGCA; result = 0.318

Set 4 — technique: competition protein-binding microarray; form: double-stranded DNA, one strand shown; matrix: in vitro; concentration: 2 µM; with: Pho4 competitor, 0.05 µM; direction: higher = stronger binding; quantity: fluorescence intensity
Target: Centromere-binding protein 1, full length, His-tagged (CBF1, Saccharomyces cerevisiae, UniProt P17106, residues 1-351)
Sequence of UniProt P17106 (whole entry, looked up): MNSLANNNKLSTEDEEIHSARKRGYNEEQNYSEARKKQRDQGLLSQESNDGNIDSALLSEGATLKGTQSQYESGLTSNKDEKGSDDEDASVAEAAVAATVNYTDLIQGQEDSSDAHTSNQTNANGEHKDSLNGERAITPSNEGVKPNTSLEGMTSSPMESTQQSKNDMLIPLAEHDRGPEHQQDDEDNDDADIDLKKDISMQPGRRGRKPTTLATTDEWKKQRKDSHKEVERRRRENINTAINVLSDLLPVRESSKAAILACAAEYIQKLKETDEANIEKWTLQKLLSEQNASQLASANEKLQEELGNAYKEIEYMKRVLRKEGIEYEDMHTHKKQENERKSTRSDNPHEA
Setting: whole 60-bp probe, lowest competitor level
Sequence = AAATTACTAAGTTGTCGTGTGGGTGACGCCGTATGAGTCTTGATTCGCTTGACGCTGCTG; result = 68.1 a.u.
Sequence = CATACCCAACCTTGTCACACAACTTAAGATATTTGTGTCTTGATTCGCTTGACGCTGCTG; result = 91.2 a.u.
Sequence = CGGGGTTAAGTTTGCGCGGTGGGTGGCTTGCAGCAGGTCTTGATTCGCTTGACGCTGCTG; result = 56.8 a.u.
Sequence = AGTATATCTGATCCGCACGTGATGGCCACTTAATCGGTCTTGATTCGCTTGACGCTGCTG; result = 2920 a.u.
Sequence = GCATTAACGACAAAGCACGTGACGAATTCCCTTCAAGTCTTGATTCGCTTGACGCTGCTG; result = 6640 a.u.
Sequence = TGGCCCTTTGTTGGGCATGTGCTGCAAGAAAACTGGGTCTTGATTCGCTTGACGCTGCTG; result = 189 a.u.
Sequence = CGTAAAAGAGAAAAGATCGTGCTTTCATCAAGCGCTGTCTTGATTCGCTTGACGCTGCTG; result = 68.9 a.u.
Sequence = AACGAATTGAAACGTATCGTGACGGACAATGAAGAAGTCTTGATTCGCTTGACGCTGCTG; result = 161 a.u.

Further values, each from its own experiment
Molecule = SRCAP (Homo sapiens, UniProt Q6ZRS2); tested on = CFDP1 (Homo sapiens, UniProt Q9UEE9); test = cross-linking MS; test system = cell fractions; conditions = with: DMTMM; quantity = cross-linked residues; result = E2301 to K230
Molecule = CN([C@@H]1CCc2c(CC(=O)O)c3ccccc3n2C1)S(=O)(=O)c1ccc(F)cc1; tested on = SLC6A4 (Homo sapiens, UniProt P31645); test = ligand displacement; conditions = 10 µM; quantity = inhibition; result = 9.29%
Molecule = DLD (Homo sapiens, UniProt P09622); tested on = KGD4 (Homo sapiens, UniProt P82909); test = cross-linking MS; conditions = hits only; quantity = interaction screen; result = cross-linked
Molecule = FLNA (Homo sapiens, UniProt P21333); tested on = AFG2A (Homo sapiens, UniProt Q8NB90); test = cross-linking MS; conditions = hits only; quantity = interaction screen; result = cross-linked
Molecule = KAT7 (Homo sapiens, UniProt O95251); tested on = JADE1 (Homo sapiens, UniProt Q6IE81); test = cross-linking MS; test system = cell fractions; conditions = with: DSSO; quantity = cross-linked residues; result = K376 to K464

A few entries again (set 2):
Substitution = YKVKRRLVFGEDD [A11E]; result = 6
Substitution = YKVKRRLVFGATD [D12T]; result = 5.82
Substitution = YKVKRRLMFGADD [V8M]; result = 5.11
Substitution = YKVKRRLVFGAWD [D12W]; result = 4.5
Substitution = YKVKDRLVFGADD [R5D]; result = -0.0793
Substitution = YKVKRRSVFGADD [L7S]; result = 0.787
Substitution = YKVKRRLVRGADD [F9R]; result = 0.362
